Results of several laboratories.
Every numbered part comes from another study and shows a few of its results, in no order.

Set 1
Target: Histone acetyltransferase KAT6A, both winged helices, GST fusion (KAT6A, Homo sapiens, UniProt Q92794, residues 1-181)
Method: protein binding microarray
Form: double-stranded DNA, one strand shown
Matrix: in vitro
Tested at: not given
Setting: 8-mer, flanks averaged, mean of 2 arrays, mostly near background
Relative to: not given
Direction: higher = stronger binding
Target sequence (chain): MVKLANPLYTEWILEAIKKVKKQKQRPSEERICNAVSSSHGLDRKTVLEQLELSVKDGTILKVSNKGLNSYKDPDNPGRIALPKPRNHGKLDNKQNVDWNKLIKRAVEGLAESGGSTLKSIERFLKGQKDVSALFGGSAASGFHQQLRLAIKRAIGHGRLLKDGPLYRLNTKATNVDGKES
| Strand | E-score |
| --- | --- |
| GACCAACA | -0.0919 |
| ATAGTATC | 0.0508 |
| GGTGCTAA | -0.018 |
| ATGCGCGC | 0.394 |
| CGATAGGC | 0.0934 |
| ATAAATTC | 0.0125 |
| CCTATTGA | -0.202 |
| CATGTCAC | 0.0958 |
| AATAACAT | -0.0599 |
| GTCTCAAC | -0.115 |
| CGAAAAAA | -0.0187 |
| CACATTTA | -0.26 |
| GAGAAAGC | 0.0303 |
| AACGATAC | -0.196 |
| AATTTCGC | -0.103 |
| GGCCACGA | -0.0407 |
| AGCACGAT | -0.178 |
| AGTCGGAA | 0.149 |
| ATCAGCTA | -0.154 |
| CGGAGTTA | 0.128 |
| GGACAGAA | 0.0169 |
| CAATGATC | -0.0431 |
| CAGACGCA | -0.00758 |
| GATTAAAC | 0.117 |
| AAGTTACG | 0.0141 |

Set 2
Target: Phosphate system positive regulatory protein PHO4, full length, GST-tagged (PHO4, Saccharomyces cerevisiae, UniProt P07270, residues 1-312)
Method: competition protein-binding microarray
Form: double-stranded DNA, one strand shown
Matrix: in vitro
Tested at: 2 µM
Setting: whole 60-bp probe, lowest competitor level
Added: Cbf1 competitor, 0.05 µM
Direction: higher = stronger binding
Residues (chain): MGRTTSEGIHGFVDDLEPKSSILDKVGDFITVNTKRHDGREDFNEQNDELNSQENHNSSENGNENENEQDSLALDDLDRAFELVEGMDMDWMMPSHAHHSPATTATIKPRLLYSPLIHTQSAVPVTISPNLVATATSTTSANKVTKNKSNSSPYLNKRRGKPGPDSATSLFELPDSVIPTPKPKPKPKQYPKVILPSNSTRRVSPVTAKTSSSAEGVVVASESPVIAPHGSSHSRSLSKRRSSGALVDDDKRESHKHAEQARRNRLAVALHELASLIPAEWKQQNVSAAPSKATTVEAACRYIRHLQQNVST
| Strand | fluorescence intensity [a.u.] |
| --- | --- |
| ATAAAACAACGGCCTCCCGTGCCGAATTACCTTCCTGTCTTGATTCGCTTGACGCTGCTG | 6470 |
| AAAGCGGTAATTTGGGATGTGGGTGCAGATATCTATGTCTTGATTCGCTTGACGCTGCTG | 5230 |
| GGATCTGCCTATGCCTTCGTGGGTAATCTCTTACTCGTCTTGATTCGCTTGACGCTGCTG | 4890 |
| GACCAGCTTGTGAGGCATGTGTCACCCTGGAATTTCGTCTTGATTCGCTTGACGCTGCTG | 7910 |
| TCCCATTGCATTACCCACGTGTGGAAGCGTCTTCCAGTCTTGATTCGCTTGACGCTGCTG | 20800 |
| CCGAGTCAAGAACATCACATGTTCATAATAACCGCAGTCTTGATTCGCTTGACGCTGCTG | 9640 |
| CATACCCAACCTTGTCACAGTACTTAAGATATTTGTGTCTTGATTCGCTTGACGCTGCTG | 3930 |
| CTTTCCCGATCTTGCCCCGTGGGTGTAGCACATTTGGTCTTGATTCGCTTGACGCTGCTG | 12200 |
| AAATTACTAAGTTGAACCGTGGGTGACGCCGTATGAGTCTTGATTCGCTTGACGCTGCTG | 6540 |
| GGGTTGGACAGGTTCAGCGTGATGGTAAGCAGCACTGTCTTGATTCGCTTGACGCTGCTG | 5600 |
| TTATCCACTACCTGTCATGATGGTCCATTTGGTGCTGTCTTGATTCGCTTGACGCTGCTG | 4330 |
| AACCGCATCCCGTCCCACGTGACGGACGGCACCCAAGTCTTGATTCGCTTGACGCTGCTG | 16900 |
| CGGGGTTAAGTTTGTCACCCAACTTGCTTGCAGCAGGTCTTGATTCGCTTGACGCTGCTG | 3120 |
| TATACAGCTTTGCCAAGCGTGCGGAATAGGGAATAAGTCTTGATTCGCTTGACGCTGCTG | 6820 |
| AAGAAGAGGCAGATTACCGTGATGGTATAGAGCCCAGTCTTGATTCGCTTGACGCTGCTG | 3140 |
| AAATTACTAAGTTTTCACGTGAGTTACCCCGTATGAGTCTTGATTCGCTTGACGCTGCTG | 10000 |
| AAAATATATCGCTAGCATGCGTGAGATATGGATAAGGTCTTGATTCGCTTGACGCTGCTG | 8720 |
| TTATTGCTGTTAGGACCCGTGATGGGTTCGTAGATCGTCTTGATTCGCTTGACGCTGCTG | 6600 |
| TGGGTAGTTATAAGAGGCGTGCTTTTTGGCCATCAAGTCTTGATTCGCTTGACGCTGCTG | 8030 |

Set 3
Target: PABPC1L2, full length, GST fusion (mouse, UniProt A0ABA7IW68)
Method: RNAcompete
Form: RNA
Matrix: in vitro
Tested at: 20 nM
Setting: 7-mer, probes averaged, single round
Relative to: mean of 7-mers
Direction: higher = stronger binding
Target sequence (chain): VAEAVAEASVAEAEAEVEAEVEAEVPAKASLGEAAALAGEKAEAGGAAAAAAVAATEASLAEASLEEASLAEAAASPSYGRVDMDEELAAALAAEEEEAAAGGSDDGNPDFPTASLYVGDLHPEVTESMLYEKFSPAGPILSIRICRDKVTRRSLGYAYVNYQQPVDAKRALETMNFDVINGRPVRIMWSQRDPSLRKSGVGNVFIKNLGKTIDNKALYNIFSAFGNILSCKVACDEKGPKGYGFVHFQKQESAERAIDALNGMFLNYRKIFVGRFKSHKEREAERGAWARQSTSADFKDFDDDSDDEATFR
| Strand | 7-mer Z-score |
| --- | --- |
| UGCAGUU | -0.179 |
| GUGCACC | -0.233 |
| GGGGGUG | 0.282 |
| GAAUUGG | -0.00652 |
| UCGAUGA | -0.0663 |
| GGUUAUC | -0.0844 |
| GCCACGG | -0.0554 |
| AGACCGU | -0.358 |
| UGGUGCC | -0.05 |
| UAUUUCU | -0.402 |
| UGCAUCA | -0.215 |
| UCCGAGG | -0.184 |
| UGUCUAU | -0.324 |
| CGUUCUU | -0.347 |
| CUAGUUU | -0.478 |
| CGCUAGG | -0.197 |
| ACCCUCU | -0.335 |

Set 4
Target: Interferon regulatory factor 5, full length, phosphomimetic (IRF5, Homo sapiens, UniProt Q13568-2, residues 1-514, S451D/S453D/S456D/S462D)
Method: protein-binding microarray
Form: double-stranded DNA, one strand shown
Matrix: in vitro
Tested at: 940 nM top
Setting: 60-bp whole probe
Added: salmon DNA 0.4 mg/ml
Relative to: random background probes
Direction: higher = stronger binding
Constant ends, left off below: GCCTAGCAC … GTCTTGATTCGCTTGACGCTGCTG
| Strand | fitted relative affinity |
| --- | --- |
| TTAGGACTGCTATTGCTTTAGTGCTAG | -0.695 z-score |
| AAGGGTCTCTTGTTCTCTCTGTGCTAG | 0.578 z-score |
| TTAGGCTTCCTTTCCCTTTAGTGCTAG | 0.447 z-score |
| TCAATGGTCCTGGTTTCAACTGTGCTA | 0.847 z-score |
| TTAGGTATCAGTCTCGGTTAGTGCTAG | 5.24 z-score |
| TCAACTTTCTTTAACATACTGTGCTAG | 1.7 z-score |
| TGTGCCATATTTATCTGCAAGTGCTAG | -0.0633 z-score |
| GACGAAGTGAGACTGGAGACGTGCTAG | -0.321 z-score |
| TTAGATATCAGGTATCGATTAGTGCTA | 3.13 z-score |
| TCATTTTCCTAATTGAAACTGTGCTAG | 0.672 z-score |
| TCTTTTTTTCTTTTATTAGTGTGCTAG | 1.87 z-score |
| TTAGGACTGTTTTTCCTTTAGTGCTAG | 0.0769 z-score |
| CTAGGACTGGACTTTCGGTTAGTGCTA | 2.39 z-score |
| TTACATCTCAGACTGGATTAGTGCTAG | 0.0479 z-score |
| GACGGACCGCTTTTCCTGACGTGCTAG | -0.532 z-score |
| TTAGATATCGGGTATGGATTAGTGCTA | 0.747 z-score |
| TTAGGTTTCGGGTTCGGTTAGTGCTAG | 10.1 z-score |
| CTGCTCCTCTTTTTTTGGTAGTGCTAG | 0.667 z-score |
| TTAGGTATCGGTCTCGGTGAGTGCTAG | 9.52 z-score |
